# Published values gathered from unrelated publications.
# Protocols differ between the studies behind these lines. ± marks the error that the study gave.
# ERBB2: Receptor tyrosine-protein kinase erbB-2 (ERBB2, Homo sapiens, UniProt P04626)
# P2RX4: P2X purinoceptor 4 (P2RX4, Homo sapiens, UniProt Q99571)
# Chain of UniProt Q99571 (whole entry, looked up): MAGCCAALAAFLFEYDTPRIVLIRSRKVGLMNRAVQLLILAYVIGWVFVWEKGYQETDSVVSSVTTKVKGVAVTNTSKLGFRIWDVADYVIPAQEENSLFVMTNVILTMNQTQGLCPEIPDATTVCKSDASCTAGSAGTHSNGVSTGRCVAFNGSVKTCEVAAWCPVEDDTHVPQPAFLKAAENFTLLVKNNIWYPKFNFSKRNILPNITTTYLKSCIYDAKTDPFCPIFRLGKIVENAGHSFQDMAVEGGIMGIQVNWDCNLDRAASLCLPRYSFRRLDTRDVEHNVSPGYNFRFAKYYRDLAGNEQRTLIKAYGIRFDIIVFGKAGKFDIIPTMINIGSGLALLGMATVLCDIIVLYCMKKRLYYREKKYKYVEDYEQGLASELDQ
# Proteasome subunit beta type-9: Proteasome subunit beta type-9 (Homo sapiens, UniProt P28065)
# Chain of UniProt P28065 (whole entry, looked up): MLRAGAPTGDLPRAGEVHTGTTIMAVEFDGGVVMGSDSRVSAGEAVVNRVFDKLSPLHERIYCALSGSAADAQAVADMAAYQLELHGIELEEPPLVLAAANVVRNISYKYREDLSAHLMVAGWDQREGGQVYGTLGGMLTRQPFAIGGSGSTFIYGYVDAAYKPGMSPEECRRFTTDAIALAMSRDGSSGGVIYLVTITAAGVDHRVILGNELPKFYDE
# SRC: Proto-oncogene tyrosine-protein kinase Src (SRC, Homo sapiens, UniProt P12931)
# CACNA1C: Voltage-dependent L-type calcium channel subunit alpha-1C (CACNA1C, Homo sapiens, UniProt Q13936)
# Chain of UniProt Q13936 (whole entry, looked up): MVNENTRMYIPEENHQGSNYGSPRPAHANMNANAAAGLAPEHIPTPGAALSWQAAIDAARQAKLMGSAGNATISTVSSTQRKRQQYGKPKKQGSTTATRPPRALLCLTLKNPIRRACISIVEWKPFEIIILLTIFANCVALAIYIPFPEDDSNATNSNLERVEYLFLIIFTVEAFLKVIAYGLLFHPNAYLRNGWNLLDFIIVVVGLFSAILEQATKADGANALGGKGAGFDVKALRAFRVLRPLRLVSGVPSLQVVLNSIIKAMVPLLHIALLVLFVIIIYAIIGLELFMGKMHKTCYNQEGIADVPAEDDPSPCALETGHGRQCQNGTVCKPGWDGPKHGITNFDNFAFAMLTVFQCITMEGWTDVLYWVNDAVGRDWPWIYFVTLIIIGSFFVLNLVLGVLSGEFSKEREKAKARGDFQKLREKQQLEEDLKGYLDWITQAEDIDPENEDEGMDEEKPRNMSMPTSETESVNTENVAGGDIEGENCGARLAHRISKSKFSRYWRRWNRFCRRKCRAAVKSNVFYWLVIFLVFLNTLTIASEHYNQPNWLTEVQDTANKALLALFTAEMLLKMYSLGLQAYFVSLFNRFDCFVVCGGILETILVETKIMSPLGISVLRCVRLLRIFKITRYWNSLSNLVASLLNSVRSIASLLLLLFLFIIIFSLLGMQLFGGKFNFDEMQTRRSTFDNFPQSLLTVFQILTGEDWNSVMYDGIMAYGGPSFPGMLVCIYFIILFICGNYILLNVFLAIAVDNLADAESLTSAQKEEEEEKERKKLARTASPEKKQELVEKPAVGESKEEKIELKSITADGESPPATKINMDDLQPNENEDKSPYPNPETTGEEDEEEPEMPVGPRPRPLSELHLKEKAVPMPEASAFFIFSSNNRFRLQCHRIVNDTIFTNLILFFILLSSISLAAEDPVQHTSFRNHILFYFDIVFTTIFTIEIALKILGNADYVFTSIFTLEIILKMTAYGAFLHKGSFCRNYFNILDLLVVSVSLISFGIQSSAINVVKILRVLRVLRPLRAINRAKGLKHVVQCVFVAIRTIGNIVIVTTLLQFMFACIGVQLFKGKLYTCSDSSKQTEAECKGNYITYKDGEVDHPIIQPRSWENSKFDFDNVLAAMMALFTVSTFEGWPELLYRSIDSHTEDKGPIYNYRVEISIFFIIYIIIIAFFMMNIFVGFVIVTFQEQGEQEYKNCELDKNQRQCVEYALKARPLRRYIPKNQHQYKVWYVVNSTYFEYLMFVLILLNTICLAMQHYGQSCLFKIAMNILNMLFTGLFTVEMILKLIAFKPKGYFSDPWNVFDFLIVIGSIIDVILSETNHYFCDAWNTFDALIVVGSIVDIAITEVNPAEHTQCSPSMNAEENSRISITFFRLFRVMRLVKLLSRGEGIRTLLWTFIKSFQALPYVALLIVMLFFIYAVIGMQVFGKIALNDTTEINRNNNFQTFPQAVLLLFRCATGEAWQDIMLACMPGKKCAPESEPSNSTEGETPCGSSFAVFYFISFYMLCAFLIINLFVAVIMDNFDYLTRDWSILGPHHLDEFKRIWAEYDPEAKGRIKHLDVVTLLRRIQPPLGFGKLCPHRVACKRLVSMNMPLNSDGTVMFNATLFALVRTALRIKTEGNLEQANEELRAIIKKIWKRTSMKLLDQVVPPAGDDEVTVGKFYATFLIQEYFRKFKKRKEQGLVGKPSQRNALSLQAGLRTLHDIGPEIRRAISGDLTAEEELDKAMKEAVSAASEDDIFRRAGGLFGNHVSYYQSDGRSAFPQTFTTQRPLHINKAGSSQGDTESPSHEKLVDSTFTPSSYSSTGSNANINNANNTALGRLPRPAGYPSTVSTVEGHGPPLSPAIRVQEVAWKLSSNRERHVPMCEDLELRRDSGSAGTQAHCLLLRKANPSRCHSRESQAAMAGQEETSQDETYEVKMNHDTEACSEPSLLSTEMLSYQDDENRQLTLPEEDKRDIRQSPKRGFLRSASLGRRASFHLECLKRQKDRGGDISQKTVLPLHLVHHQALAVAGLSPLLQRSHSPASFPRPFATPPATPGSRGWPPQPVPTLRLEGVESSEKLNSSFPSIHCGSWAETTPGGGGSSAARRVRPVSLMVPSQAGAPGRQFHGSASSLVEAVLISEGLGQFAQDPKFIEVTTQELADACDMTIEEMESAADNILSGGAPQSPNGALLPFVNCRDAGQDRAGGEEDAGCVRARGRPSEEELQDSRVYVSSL
# Probable G-protein coupled receptor 34: Probable G-protein coupled receptor 34 (Homo sapiens, UniProt Q9UPC5)
# Chain of UniProt Q9UPC5 (whole entry, looked up): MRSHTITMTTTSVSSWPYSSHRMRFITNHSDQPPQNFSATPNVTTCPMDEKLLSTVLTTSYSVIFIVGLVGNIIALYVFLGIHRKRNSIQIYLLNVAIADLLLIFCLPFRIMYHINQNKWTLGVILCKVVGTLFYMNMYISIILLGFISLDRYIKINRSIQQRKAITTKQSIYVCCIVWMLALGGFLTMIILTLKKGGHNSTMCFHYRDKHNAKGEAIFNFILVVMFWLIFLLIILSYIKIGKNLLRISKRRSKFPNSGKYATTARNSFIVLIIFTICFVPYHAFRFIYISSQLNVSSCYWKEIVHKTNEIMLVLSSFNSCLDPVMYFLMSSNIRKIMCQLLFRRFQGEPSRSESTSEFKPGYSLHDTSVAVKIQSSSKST
# pyrD: Dihydroorotate dehydrogenase (quinone) (pyrD, Acinetobacter baumannii, UniProt B7GZW7)
# Chain of UniProt B7GZW7 (whole entry, looked up): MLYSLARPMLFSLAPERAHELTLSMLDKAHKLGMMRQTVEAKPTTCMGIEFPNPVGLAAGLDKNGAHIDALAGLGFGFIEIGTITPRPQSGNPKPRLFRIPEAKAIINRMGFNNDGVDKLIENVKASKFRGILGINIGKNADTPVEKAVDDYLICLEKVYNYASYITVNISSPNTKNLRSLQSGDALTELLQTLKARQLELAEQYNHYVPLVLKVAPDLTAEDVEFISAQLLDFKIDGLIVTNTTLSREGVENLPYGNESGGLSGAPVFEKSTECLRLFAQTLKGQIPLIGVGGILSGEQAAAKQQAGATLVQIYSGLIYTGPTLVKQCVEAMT
# SOD1 fully metallated: Superoxide dismutase [Cu-Zn], fully metallated (SOD1, Homo sapiens, UniProt P00441)
# Chain of UniProt Q8IWT6 (whole entry, looked up): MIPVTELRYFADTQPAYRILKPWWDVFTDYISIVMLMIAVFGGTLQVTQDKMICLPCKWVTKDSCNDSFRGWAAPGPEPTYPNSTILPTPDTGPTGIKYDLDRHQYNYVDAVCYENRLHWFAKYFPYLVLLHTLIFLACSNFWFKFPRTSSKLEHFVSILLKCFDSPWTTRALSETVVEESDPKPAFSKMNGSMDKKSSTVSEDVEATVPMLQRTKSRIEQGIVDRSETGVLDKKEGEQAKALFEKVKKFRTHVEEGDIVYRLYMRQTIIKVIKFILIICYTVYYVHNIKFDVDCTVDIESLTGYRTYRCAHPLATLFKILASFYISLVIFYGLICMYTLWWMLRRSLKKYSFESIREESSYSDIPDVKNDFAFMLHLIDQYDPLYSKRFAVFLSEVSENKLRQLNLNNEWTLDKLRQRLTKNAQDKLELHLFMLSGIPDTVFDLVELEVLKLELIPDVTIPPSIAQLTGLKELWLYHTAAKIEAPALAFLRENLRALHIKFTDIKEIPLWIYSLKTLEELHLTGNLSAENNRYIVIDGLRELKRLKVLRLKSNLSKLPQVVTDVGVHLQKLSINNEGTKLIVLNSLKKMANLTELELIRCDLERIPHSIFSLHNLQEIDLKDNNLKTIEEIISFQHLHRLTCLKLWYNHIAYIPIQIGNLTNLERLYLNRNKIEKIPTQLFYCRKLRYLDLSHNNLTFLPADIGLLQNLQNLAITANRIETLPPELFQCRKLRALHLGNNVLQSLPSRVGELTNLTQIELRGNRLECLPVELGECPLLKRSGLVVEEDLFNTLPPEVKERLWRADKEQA
# Chain of UniProt P00441 (whole entry, looked up): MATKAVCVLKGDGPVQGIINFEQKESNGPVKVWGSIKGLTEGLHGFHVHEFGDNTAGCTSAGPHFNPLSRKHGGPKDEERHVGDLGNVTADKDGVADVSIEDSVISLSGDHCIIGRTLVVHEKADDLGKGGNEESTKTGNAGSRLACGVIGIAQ
Compound,target,assay,system,setting,endpoint,result
O=C(O)CCC(=O)Nc1ccccc1,"Ubiquitin carboxyl-terminal hydrolase 16, ZnF-UBD domain (USP16, Homo sapiens, UniProt Q9Y5T5)",,,,Kd,> 1000 µM
Cc1nn(-c2nc3ccc(Cl)c(Cl)c3[nH]2)c(O)c1C1OC(=O)c2ccccc21 (stereo not drawn),"Cgas (Mus musculus, UniProt Q8C6L5)","enzyme activity, inhibitor, pyrophosphatase-coupled",,mouse cGAS,IC50,0.391 µM
CC1(C)CC[C@]2(C(=O)O)CC[C@]3(C)C(=CC[C@@H]4[C@@]5(C)C[C@@H](O)[C@H](OC(=O)/C=C/c6ccc(O)cc6)C(C)(C)[C@@H]5CC[C@]43C)[C@@H]2C1 (relative stereo),"Presenilin-1, in γ-secretase complex (PSEN1, Homo sapiens, UniProt P49768)","Aβ40 production, inhibitor, cell-free γ-secretase",HeLa membranes,with: APP-CTF substrate,IC50,1.17 µM
COc1ccc(C(=O)Nc2ccc(-c3nc4ccccc4[nH]3)cc2)c(OC)c1,"Moesin, with CD44 (Homo sapiens, UniProt P26038)","MSN-CD44 binding, inhibitor, TR-FRET",,,IC50,1.6 µM
C=C(C)C1CC=C(C)CC1 (stereo not drawn),α-amylase,,,,IC50,900 ± 100 µg/mL
Cc1ccc(NC(=O)c2ccc(C)c(C(F)(F)F)c2)cc1C#Cc1nn(C2CCC(O)CC2)c2ncnc(N)c12 (stereo not drawn),ERBB2,"inhibitor, radiometric kinase",,with: ATP 10 µM,IC50,0.165 µM
c1ccc2c(N3CCNCC3COc3ccc4c(c3)OCO4)cccc2c1 (stereo not drawn),P2RX4,"calcium flux, inhibitor, Ca2+ flux",human cells,,IC50,7.08 ± 0.9 µM
CC(C)C[C@H](NC(=O)CN1CCOCC1)C(=O)N[C@@H](CC(C)C)C(=O)N[C@H](/C=C/S(C)(=O)=O)Cc1ccc(CN)cc1,Proteasome subunit beta type-9,competitive ABPP,Raji cell lysate,,IC50,> 10 µM
O=C(Nc1cccc2c(=O)cc(-c3nnn[nH]3)oc12)c1ccc(OCCCCc2ccccc2)cc1,"LRRC8A/LRRC8C (Homo sapiens, UniProt Q8IWT6+Q8TDW0)","ion current, inhibitor, whole-cell patch clamp","HCT116 LRRC8 knockout, transfected","-100 mV, LRRC8A/LRRC8C heteromer",IC50,11.8 µM
FC(F)(F)c1ccc(N2CCNCC2COc2ccc3c(c2)OCO3)cc1 (stereo not drawn),P2RX4,"Ca2+ flux, antagonist",human cells expressing P2RX4,racemate tested,IC50,11 µM
COc1ccc(C[C@H](NC(=O)[C@H](C)NC(=O)CN2CCOCC2)C(=O)N[C@@H](CC2CCC(C(F)(F)F)CC2)C(=O)[C@@]2(C)CO2)cc1 (stereo partly drawn),Proteasome subunit beta type-9,competitive ABPP,Raji cell lysate,,IC50,> 10 µM
O=C(Nc1ccc(F)cc1)N1CCNCC1COc1ccc2ccccc2c1 (stereo not drawn),P2RX4,"calcium flux, inhibitor, Ca2+ flux",human cells,,IC50,4.17 ± 0.13 µM
Cc1ncc(C(=O)N[C@@H](CC(C)C)C(=O)N[C@@H](CC2CCCCC2)C(=O)N[C@H](/C=C/S(C)(=O)=O)Cc2ccc(CN)cc2)s1,Proteasome subunit beta type-9,competitive ABPP,Raji cell lysate,,IC50,> 10 µM
CCCCC[C@H](CC(=O)NO)C(=O)N[C@H](C(=O)N1CCC[C@H]1CO)C(C)C,"Aminopeptidase N (ANPEP, Sus scrofa, UniProt P15145)",,,,IC50,2 µM
CCn1c(-c2nc3cc(C(=O)N4CCC[C@@H](N)C4)cc(OC)c3n2C)cc2cccnc21,"OPRM1 (Homo sapiens, UniProt P35372)","antagonist, GTPγS binding",,,IC50,> 100 µM
C=CC(=O)N1CCC([C@@H]2CCNc3c(C(N)=O)c(-c4ccc(Oc5ccccc5)cc4)nn32)CC1,SRC,,,,IC50,0.302 µM
CC(C)C[C@H](NC(=O)c1cc(Cl)ccc1Cl)C(=O)N[C@@H](CC(C)C)C(=O)N[C@H](/C=C/S(C)(=O)=O)Cc1ccc(CN)cc1,Proteasome subunit beta type-9,competitive ABPP,Raji cell lysate,,IC50,> 10 µM
COc1ccc2c(=O)[nH]c3c(nnn3Cc3ccc(C)cc3)c2c1,"PARP11 (Homo sapiens, UniProt Q9NR21)",,,,IC50,0.0977 µM
Cc1ccc2c(c1)C(=O)[C@]1(O)CCN(c3ccc4nc(C)ccc4c3)C1=N2,CACNA1C,safety pharmacology screen,,estimated,IC50,> 10 µM
CCn1c(=O)c(-c2ccc(-c3cncs3)cc2Cl)cc2cnc(Nc3ccc(N4CCN(C)CC4)cc3)nc21,Probable G-protein coupled receptor 34,"antagonist, Tango",,with: LysoPS 5 µM,IC50,> 10 µM
CCn1c(-c2nc3ccc(C(=O)N4CCCC(N)C4)cc3n2C)cc2ccccc21 (stereo not drawn),"PADI4 (Homo sapiens, UniProt Q9UM07)","enzyme activity, ammonia release",,"with: BAEE substrate, 0.2 mM Ca2+",IC50,> 100 µM
c1cc(N2CCNCC2COc2ccc3c(c2)OCO3)ccn1 (stereo not drawn),P2RX4,"calcium flux, inhibitor, Ca2+ flux",human cells,,IC50,2.69 ± 1.56 µM
N#Cc1cnc(NC(=O)Nc2cc(Br)ccc2N2CCCCC2)cn1,"CHEK1 (Homo sapiens, UniProt O14757)",kinase activity,,pH 7.4,IC50,0.0115 µM
O=S(=O)(c1ccccc1Cl)N1CCNCC1COc1ccc2ccccc2c1 (stereo not drawn),P2RX4,"Ca2+ flux, antagonist",human cells expressing P2RX4,racemate tested,IC50,4.07 µM
Cc1cc(N2CCN(c3ncccn3)CC2)nc2ccc(NC(=O)c3cccc(N(C)C)c3)cc12,Probable G-protein coupled receptor 34,"antagonist, Tango",,with: LysoPS 5 µM,IC50,> 10 µM
Cc1cnc(-c2ccc(-c3ccc(NC(=O)Nc4c(F)cc(F)cc4F)cc3F)c3c2C(=O)NC3)[nH]1,SRC,"enzyme activity, inhibitor, mobility shift",,with: ATP 1 mM,IC50,0.258 µM
Cc1cc(Nc2ccc(C(C)(C)C)c(F)c2)n2ncnc2n1,pyrD,"enzyme activity, inhibitor, DCIP steady-state rate",,,IC50,0.35 ± 0.075 µM
COc1cccc2c1C(=O)c1c(O)c3c(c(O)c1C2=O)C[C@@](O)(C(=O)CO)C[C@@H]3O[C@H]1C[C@H](N)[C@H](O)[C@H](C)O1,"SLCO1B3 (Homo sapiens, UniProt Q9NPD5, M233I/S112A)","estradiol glucuronide uptake, inhibitor",SLCO1B3-expressing cells,"2 min, with: 1 µM [3H]estradiol glucuronide",IC50,> 100 µM
Fc1ccc(CN2CCNCC2COc2ccc3c(c2)OCO3)cc1 (stereo not drawn),P2RX4,"calcium flux, inhibitor, Ca2+ flux",human cells,,IC50,1.86 ± 0.24 µM
Cc1oc(C)c(-c2ccc(N(CC(C)C)C3CCCCC3)c(NC(=O)Nc3ccccc3)c2)c1C(=O)O,"IDO1 (Homo sapiens, UniProt P14902)","enzyme activity, inhibitor, recombinant enzyme, item: kynurenine",,"20 min, 2% DMSO, with: L-tryptophan",IC50,38 ± 6 µM
C[C@]12CC[C@@H]3c4ccc(OS(=O)(=O)O)cc4CC[C@H]3[C@@H]1CCC2=O,"SLC22A11 (Homo sapiens, UniProt Q9NSA0)","transport, inhibitor",CHO expressing hOAT4,"5 min, with: 6-carboxyfluorescein 25 µM",IC50,1.61 ± 0.42 µM
Fc1ccc(N2CCNCC2COc2ccc(-c3ccccc3)cc2)cc1 (stereo not drawn),P2RX4,"calcium flux, inhibitor, Ca2+ flux",human cells,,IC50,8.31 ± 0.42 µM
O=C1CN(c2nc(=O)c3cc(C(F)(F)F)cc([N+](=O)[O-])c3s2)CCN1C1CCCC1,"Cytochrome P450 2D6 (CYP2D6, Homo sapiens, UniProt P10635)",,,"60 (unit not given), pH 7.4",IC50,> 10 µM
Cc1cc(C(=O)Nc2nc3cccc(Cl)c3n2[C@@H]2CCCCN(C(=O)/C=C/CN(C)C)C2)ccn1,ERBB2,,,,IC50,> 0.1 µM
c1cc(-c2nc3ccc(OCCCN4CCCC4)cc3o2)ccc1OCCCN1CCCC1,Probable G-protein coupled receptor 34,"antagonist, Tango",,with: LysoPS 5 µM,IC50,> 10 µM
Cc1ccc2ccc3ccc(C)nc3c2n1,SOD1 fully metallated,"enzyme activity, inhibitor, XTT",,,IC50,> 75 µM
CN1CCN(c2ccc(Nc3ncc4cc(C#N)c(=O)n(C5CCCC5)c4n3)cc2)CC1,"TAOK1 (Homo sapiens, UniProt Q7L7X3)",,,,IC50,0.0634 µM
CN(C)C(=O)/N=N/C(=O)N(C)C,"Protein-arginine-phosphatase (ywle, Geobacillus stearothermophilus, UniProt S0F332)",,,"pH 7.6, 25 °C, with: pNPP substrate",IC50,4200 ± 300 µM
CC(C)C[C@H](NC(=O)[C@H](CCc1ccccc1)NC(=O)CN1CCOCC1)C(=O)N[C@@H](Cc1ccccc1)C(=O)N[C@@H](CC(C)C)C(=O)[C@@]1(C)CO1,"Psmb7/Psmb3, β2 subunit (Mus musculus, UniProt P70195+Q9R1P1)",proteasome subunit activity,Ba/F3 BCR-ABL1 M351T,1 h pulse,IC50,0.136 ± 0.0251 µM
Cc1ncc(C(=O)N[C@@H](CC2CCCC3CCCCC32)C(=O)N[C@@H](CC(C)C)C(=O)N[C@H](/C=C/S(C)(=O)=O)Cc2ccc(CN)cc2)s1 (stereo partly drawn),Proteasome subunit beta type-9,competitive ABPP,Raji cell lysate,,IC50,> 10 µM
Cc1c(-c2ccccc2)oc2ccccc2c1=O,"LRRC8A (Homo sapiens, UniProt Q8IWT6)",hypotonicity-induced current,HEK293,,IC50,37.2 µM
O=C(c1ccc(F)cc1)N1CCNCC1COc1ccc2c(c1)OCO2 (stereo not drawn),P2RX4,"Ca2+ flux, antagonist",human cells expressing P2RX4,racemate tested,IC50,> 10 µM
Cc1ccc(S(=O)(=O)/C=C/C#N)cc1,"USP6 (Homo sapiens, UniProt P35125)","enzyme activity, inhibitor, MALDI-TOF DUB",,"35 min preincubation, 30 °C",IC50,1.7 µM
O=C(Nc1ccn(Cc2ccc(O)cc2C(F)(F)F)n1)c1c(F)cccc1F,CACNA1C,"ion current, antagonist",CaV1.2-expressing cells,,IC50,8 µM
Cc1ncc(C(=O)N[C@@H](CC2CCC(C3CCCCC3)CC2)C(=O)N[C@@H](CC(C)C)C(=O)N[C@H](/C=C/S(C)(=O)=O)Cc2ccc(CN)cc2)s1 (stereo partly drawn),Proteasome subunit beta type-9,competitive ABPP,Raji cell lysate,,IC50,> 10 µM
NCCOCCCN1CCN(c2ccc(-c3cncc(Cl)c3N3CCC4(CCNC4=O)CC3)cc2)CC1,"Cyclin-dependent kinase 8, with cyclin C (CDK8, Homo sapiens, UniProt P49336)",,,,IC50,0.001 ± 0.0001 µM
Cn1cc2c(C(=O)O)ccc(NS(=O)(=O)c3ccc(OCC4CCC4)c(Cl)c3)c2n1,"SLC6A3 (Homo sapiens, UniProt Q01959)",antagonist,,,IC50,> 10 µM
Cc1cc(Nc2ccc(S(F)(F)(F)(F)F)cc2)n2nc(C)nc2n1,pyrD,"enzyme activity, inhibitor, DCIP steady-state rate",,,IC50,0.77 ± 0.34 µM
CCN(CC)C(=S)S,SOD1 fully metallated,"enzyme activity, inhibitor, XTT",,,IC50,5.6 ± 0.5 µM
Nc1nc(=O)n([C@H]2C[C@H](O)[C@@H](CO)O2)cc1CN(CC[C@H](N)C(=O)O)C[C@H]1O[C@@H](n2cnc3c(N)ncnc32)[C@H](O)[C@@H]1O,"DNMT1 (Homo sapiens, UniProt P26358)",,,"truncated enzyme, with: 26 bp hemimethylated DNA, SAM 1 µM",IC50,> 100 µM
C=CC(=O)Nc1cccc(Oc2nc(Nc3ccc(N4CCN(C)CC4)cc3)nc3ccoc23)c1,SRC,,,,IC50,0.568 µM

# Some of these lines once more:
Compound,target,assay,system,setting,endpoint,result
C[C@]12CC[C@@H]3c4ccc(OS(=O)(=O)O)cc4CC[C@H]3[C@@H]1CCC2=O,"SLC22A11 (Homo sapiens, UniProt Q9NSA0)","transport, inhibitor",CHO expressing hOAT4,"5 min, with: 6-carboxyfluorescein 25 µM",IC50,1.61 ± 0.42 µM
CC(C)C[C@H](NC(=O)[C@H](CCc1ccccc1)NC(=O)CN1CCOCC1)C(=O)N[C@@H](Cc1ccccc1)C(=O)N[C@@H](CC(C)C)C(=O)[C@@]1(C)CO1,"Psmb7/Psmb3, β2 subunit (Mus musculus, UniProt P70195+Q9R1P1)",proteasome subunit activity,Ba/F3 BCR-ABL1 M351T,1 h pulse,IC50,0.136 ± 0.0251 µM
FC(F)(F)c1ccc(N2CCNCC2COc2ccc3c(c2)OCO3)cc1 (stereo not drawn),P2RX4,"Ca2+ flux, antagonist",human cells expressing P2RX4,racemate tested,IC50,11 µM
Cc1ccc2ccc3ccc(C)nc3c2n1,SOD1 fully metallated,"enzyme activity, inhibitor, XTT",,,IC50,> 75 µM
c1cc(N2CCNCC2COc2ccc3c(c2)OCO3)ccn1 (stereo not drawn),P2RX4,"calcium flux, inhibitor, Ca2+ flux",human cells,,IC50,2.69 ± 1.56 µM
c1ccc2c(N3CCNCC3COc3ccc4c(c3)OCO4)cccc2c1 (stereo not drawn),P2RX4,"calcium flux, inhibitor, Ca2+ flux",human cells,,IC50,7.08 ± 0.9 µM
